Experimental data collected from several papers.
Lines come from different studies, so protocols differ.
Target: Ankyrin repeat and protein kinase domain-containing protein 1 (ANKK1, Homo sapiens, UniProt Q8NFD2)

Compound	assay	conditions	how to read	measurement	result
COc1cc(Nc2nccc(-c3cnn4nc(OC)ccc34)n2)cc(C(F)(F)F)c1	binding, competition with immobilised ligand	1 µM		remaining binding	78%
Cc1cnc2nc1Nc1cccc(c1)COC/C=C/COCc1cc(ccc1OCCN1CCOCC1)N2	binding	0.1 µM		remaining binding	96%
Nc1ncc2c(n1)-c1c([nH]c3ccc(C4=CCOCC4)cc13)CCC2	binding, competition with immobilised ligand	1 µM		remaining binding	100%
COc1cc(Nc2nc(C)cc(-c3cnn4nc(OC)ccc34)n2)cc(C(F)(F)F)c1	inhibitor	1 µM	baseline: control	remaining activity	70%
COc1c(Cl)cccc1Nc1c(-c2ccncc2C#C[C@@]2(C)CCCN2C(=O)/C=C/CN(C)C)[nH]c2c1C(=O)NCC2	binding, competition with immobilised ligand	3 µM		remaining binding	77%
C=CC(=O)N1CCCC(n2c(=O)c3ncccc3n(Cc3ccc(Oc4ccccc4)cc3)c2=O)C1 (stereo not shown)	cell-free assay, competition with immobilised ligand	1 µM		remaining binding	99%
C=CC(=O)N1Cc2nc(-c3cc(-c4cc(Cl)cnc4Cl)c(F)cc3F)n(-c3ccncn3)c2C1	cell-free assay	1 µM		inhibition	-2.2%
CCN1CCN(Cc2ccc(C(=O)Nc3ccc(C)c(NCc4cnc5[nH]ccc5c4OC)c3)cc2C(F)(F)F)CC1	binding, competition with immobilised ligand	1 µM		remaining binding	5.2%
CNC1C[S+]2CC[S+]3CC[S+](C1)[Ru-4]321([N]=C=S)[n]2c3ccc(OC)cc3c3c4c(c5cc(F)c[n+]1c5c32)C(=O)NC4=O (stereo not shown)	KinomeScan	0.1 µM	baseline: untreated	remaining binding	92%
CNC(=O)C1CCN(c2cc(C)c(F)cc2NC(=O)c2ccc(-c3cc(O)ccc3C)c(C)c2)CC1	binding, competition with immobilised ligand	1 µM		remaining binding	100%
C=CC(=O)N1CCc2ccc(-n3c(=O)ccc4cnc5ccc(-c6cnn(C)c6)cc5c43)cc21	KINOMEscan	1 µM	baseline: DMSO control	remaining binding	51%
CC(C)=CC1OC(C)(C)C2C=C3C(=O)C(Cl)=CC(O)C3C3C(O)C4OC4C(=O)C132 (stereo not shown)	cell-free assay, competition with immobilised ligand	10 µM		remaining binding	59%
Cc1ccc(-c2c(/C=C(\C#N)C(=O)NC(C)C)n(CCCO)c3ncnc(N)c23)cc1	cell-free assay, competition with immobilised ligand	1 µM		remaining binding	90%

Some of these lines once more:
Compound	assay	conditions	how to read	measurement	result
CNC1C[S+]2CC[S+]3CC[S+](C1)[Ru-4]321([N]=C=S)[n]2c3ccc(OC)cc3c3c4c(c5cc(F)c[n+]1c5c32)C(=O)NC4=O (stereo not shown)	KinomeScan	0.1 µM	baseline: untreated	remaining binding	92%
